Published values of several laboratories.
Each line is one published result; not all experiments were run side by side. ± marks the error that the study gave.
CYP2B6: Cytochrome P450 2B6 (CYP2B6, Homo sapiens, UniProt P20813)

Structure (SMILES)	tested on	assay	system	conditions	measurement	value
CC[C@H](C)[C@H](N)C(=O)N[C@H](C(=O)N[C@@H](CO)C(=O)N[C@H](C(=O)N[C@H](C(=O)NCC(=O)N[C@@H](CC(=O)O)C(=O)N[C@@H](Cc1c[nH]c2ccccc12)C(=O)N[C@H](C(=O)N[C@@H](CCCCN)C(=O)N[C@@H](CC(C)C)C(=O)N[C@H](C(=O)N[C@H](C(=O)N[C@@H](CC(=O)O)C(=O)N[C@H](C(=O)N[C@H](C(=O)N[C@@H](CC(N)=O)C(=O)N[C@@H](CCCCN)C(=O)N[C@@H](Cc1ccccc1)C(=O)N[C@H](C(=O)N[C@@H](CCCCN)C(=O)N[C@@H](CCCCN)C(=O)O)[C@@H](C)O)C(C)C)[C@@H](C)O)[C@@H](C)CC)[C@@H](C)CC)C(C)C)[C@@H](C)CC)[C@@H](C)O)[C@@H](C)CC	–	lipid vesicle binding	POPC vesicles	pH 7.5	Kd	190000 nM
CC(C)C[C@H](NC(=O)[C@H](CCCNC(=N)N)NC(=O)[C@H](Cc1ccccc1)NC(=O)[C@H](Cc1ccccc1)NC(=O)[C@@H](NC(=O)[C@@H](CO)NC(=O)[C@H](CC(C)C)NC(=O)[C@H](CO)NC(=O)CNC(=O)[C@@H](N)CO)[C@@H](C)O)C(=O)N[C@@H](Cc1ccccc1)C(=O)N[C@@H](CC(N)=O)C(=O)N[C@@H](CCCNC(=N)N)C(=O)N[C@@H](CO)C(=O)N[C@@H](Cc1ccccc1)C(=O)N[C@H](C(=O)N[C@@H](CCC(N)=O)C(=O)N[C@@H](C)C(=O)O)[C@@H](C)O	uncharacterized protein (Streptococcus mutans serotype c, UniProt Q8DS94)	–	Streptococcus mutans	–	EC50	17 nM
CCCCCc1cc(O)c2c(c1)OC(C)(C)C1CCC(C)=CC21 (single isomer, unassigned; (-))	CYP2B6	inhibitor	HEK293 overexpressing CYP2B6, recombinant microsomes	pH 7.4, total concentration, added: bupropion 12.5 to 100 µM	Ki	5700 ± 1000 nM
N=C(N)NCCC[C@@H]1NC(=O)[C@H](CCCCNC(=O)CCOCCOCCOCCOCCNC(=O)CC[C@H](NC(=O)CCOCCOCCOCCOCCNC(=O)CC[C@H](NC(=O)CN2CCN(CC(=O)O)CCN(CC(=O)O)CCN(CC(=O)O)CC2)C(=O)NCCOCCOCCOCCOCCC(=O)N[C@@H](CCC(=O)NCCOCCOCCOCCOCCC(=O)NCCCC[C@@H]2NC(=O)[C@@H](Cc3ccccc3)NC(=O)[C@H](CC(=O)O)NC(=O)CNC(=O)[C@H](CCCNC(=N)N)NC2=O)C(=O)NCCOCCOCCOCCOCCC(=O)NCCCC[C@@H]2NC(=O)[C@@H](Cc3ccccc3)NC(=O)[C@H](CC(=O)O)NC(=O)CNC(=O)[C@H](CCCNC(=N)N)NC2=O)C(=O)NCCOCCOCCOCCOCCC(=O)NCCCC[C@@H]2NC(=O)[C@@H](Cc3ccccc3)NC(=O)[C@H](CC(=O)O)NC(=O)CNC(=O)[C@H](CCCNC(=N)N)NC2=O)NC(=O)[C@@H](Cc2ccccc2)NC(=O)[C@H](CC(=O)O)NC(=O)CNC1=O [indium-111 labelled]	–	–	female athymic nude mice, eyes	intravenous, 3 µCi, 4 h, U-87 MG glioma xenograft	tissue uptake	1.03 ± 0.14 %ID/g
COc1cc(-c2cnc3nc2NCCCNS(=O)(=O)c2cc(ccc2OC)N3)ccc1F	Tyrosine-protein kinase ABL1 (ABL1, Homo sapiens, UniProt P00519)	target engagement in cells, BRET	–	–	EC50	> 50000 nM
NCCCC[C@H](NC(=O)CNC(=O)CNC(=O)[C@H](CCCCN)NC(=O)CNC(=O)CNC(=O)CNC(=O)[C@H](CCCCN)NC(=O)CNC(=O)CNC(=O)[C@H](CCCCN)NC(=O)CNC(=O)CNC(=O)CNC(=O)[C@H](CCCCN)NC(=O)CNC(=O)CNC(=O)[C@H](CCCCN)NC(=O)CNC(=O)CNC(=O)CNC(=O)[C@H](CCCCN)NC(=O)CNC(=O)CNC(=O)[C@H](CCCCN)NC(=O)[C@H](CO)NC(=O)[C@H](Cc1ccc(O)cc1)NC(=O)CNC(=O)CNC(=O)CN)C(=O)NCC(=O)O	–	binding, SPR Langmuir fit	rVλ6Wil fibrils	300 nM, pH 7.4	dissociation rate constant	0.0014 s⁻¹
CN1C(=O)[C@H](Cc2ccc(O)cc2)NC(=O)CNC(=O)[C@H](Cc2ccc(O)cc2)NC(=O)[C@H](CCC(=O)O)NC(=O)[C@H](Cc2ccc(O)cc2)N(C)C(=O)[C@H](Cc2ccc(O)cc2)N(C)C(=O)[C@H](CCC(N)=O)NC(=O)[C@H](Cc2c[nH]c3ccccc23)NC(=O)[C@H](Cc2ccc(O)cc2)NC(=O)[C@@H](Cc2ccc(O)cc2)NC(=O)CSC[C@@H](C(N)=O)NC(=O)[C@H](CCCCN)NC(=O)[C@@H]1Cc1ccc(O)cc1	2,3-bisphosphoglycerate-independent phosphoglycerate mutase (Helicobacter pylori, UniProt B5Z7X6)	biochemical	–	–	AC50	1450 nM
C[C@H](NC(=O)[C@H](CCC(N)=O)NC(=O)[C@H](CCCCN)NC(=O)[C@H](C)NC(=O)[C@@H]1CCCN1C(=O)[C@H](C)NC(=O)[C@H](CCCCN)NC(=O)[C@H](CCC(N)=O)NC(=O)[C@H](C)NC(=O)[C@H](CCCCN)NC(=O)[C@H](CCC(N)=O)NC(=O)[C@@H]1CCCN1C(=O)[C@H](CCC(N)=O)NC(=O)[C@H](CCCCN)NC(=O)[C@H](C)NC(=O)[C@H](CCC(N)=O)NC(=O)[C@H](CCCCN)NC(=O)[C@H](C)NC(=O)[C@@H]1CCCN1C(=O)[C@H](C)NC(=O)[C@H](CCCCN)NC(=O)[C@H](CCC(N)=O)NC(=O)[C@H](C)NC(=O)[C@H](CCCCN)NC(=O)[C@H](CO)NC(=O)[C@H](Cc1ccc(O)cc1)NC(=O)CNC(=O)CNC(=O)CN)C(=O)N[C@@H](CCCCN)C(=O)N[C@@H](CCC(N)=O)C(=O)O	–	binding, SPR Langmuir fit	rVλ6Wil fibrils	300 nM, pH 7.4	dissociation rate constant	0.0021 s⁻¹
CC(C)[C@H](NC(=O)[C@H](CCCNC(=N)N)NC(=O)[C@@H](NC(=O)[C@H](CCC(N)=O)NC(=O)[C@H](CCC(N)=O)NC(=O)[C@@H](NC(=O)[C@H](Cc1c[nH]c2ccc(O)cc12)NC(=O)[C@@H]1CCCN1C(=O)[C@@H]1CCCN1C(=O)[C@H](Cc1ccccc1)NC(=O)[C@H](CO)NC(=O)CNC(=O)[C@H](CCCNC(=N)N)NC(=O)[C@H](CCCNC(=N)N)NC(=O)[C@H](CCCNC(=N)N)NC(=O)[C@H](CCCNC(=N)N)NC(=O)[C@H](CCCNC(=N)N)NC(=O)[C@@H](N)CCCNC(=N)N)C(C)C)[C@@H](C)O)C(=O)O	Disks large homolog 4, PDZ3 domain (Homo sapiens, UniProt P78352)	binding, SPR	–	pH 7.5, 25 °C	Kd	446 nM
CC1=CC(C)=[N+]2C1=Cc1ccc(CCC(=O)NCCOCCOCCOCCOCC(=O)N[C@H](C(=O)N3C[C@H](O)C[C@H]3C(=O)NCc3ccc(-c4scnc4C)cc3)C(C)(C)C)n1[B-]2(F)F	von Hippel-Lindau disease tumor suppressor, with elongin B/C (VHL, Homo sapiens, UniProt P40337)	binding, TR-FRET	–	120 min, added: BODIPY FL VH032	Kd	3.04 nM
C[C@@H](NC(=O)[C@@H](CCC(N)=O)NC(=O)[C@@H](C)NC(=O)[C@@H](CCCCN)NC(=O)[C@@H](CCC(N)=O)NC(=O)[C@@H](C)NC(=O)[C@@H](CCCCN)NC(=O)[C@@H](CCC(N)=O)NC(=O)[C@@H](C)NC(=O)[C@@H](CCC(N)=O)NC(=O)[C@@H](CCCCN)NC(=O)[C@@H](C)NC(=O)[C@@H](CCC(N)=O)NC(=O)[C@@H](CCCCN)NC(=O)[C@@H](C)NC(=O)[C@@H](CCC(N)=O)NC(=O)[C@@H](C)NC(=O)[C@@H](CCCCN)NC(=O)[C@@H](CCC(N)=O)NC(=O)[C@@H](C)NC(=O)[C@@H](CCCCN)NC(=O)[C@@H](CO)NC(=O)[C@@H](Cc1ccc(O)cc1)NC(=O)CNC(=O)CNC(=O)CN)C(=O)N[C@H](CCCCN)C(=O)N[C@H](CCC(N)=O)C(=O)N[C@H](C)C(=O)N[C@H](CCCCN)C(=O)N[C@H](CCC(N)=O)C(=O)O	–	binding, SPR two-state model	rVλ6Wil fibrils	300 nM	kd1	0.052 s⁻¹
N=C(N)NCCC[C@@H]1NC(=O)[C@H](CCCCNC(=O)CCOCCOCCOCCOCCNC(=O)CN2CCN(CC(=O)O)CCN(CC(=O)O)CCN(CC(=O)O)CC2)NC(=O)[C@@H](Cc2ccccc2)NC(=O)[C@H](CC(=O)O)NC(=O)CNC1=O [indium-111 labelled]	–	–	female athymic nude mice, eyes	intravenous, 3 µCi, 0.5 h, U-87 MG glioma xenograft	tissue uptake	0.85 ± 0.15 %ID/g
CC(C)C[C@@H](CC(=O)NCc1cccc(Oc2ccccc2)c1)NC(=O)[C@H](CCCNC(=N)N)NC(=O)[C@@H](N)CCCNC(=N)N	Cyclin-A2, with CDK2 (CCNA2, Homo sapiens, UniProt P20248)	kinase activity, inhibitor	–	added: GST-Rb substrate	IC50	> 100000 nM
CCCCCn1cc(C(=O)c2ccc3c(c2)CC(C)(C)C3)c2ccccc21	Cannabinoid receptor 2 (CNR2, Homo sapiens, UniProt P34972)	β-arrestin recruitment, agonist, BRET	–	–	EC50	513 nM
CC(C)[C@H](N)C(=O)N[C@@H](Cc1ccc(O)cc1)C(=O)N[C@@H](CCCCN)C(=O)N[C@H](C(=O)N[C@@H](CCCCN)C(=O)N[C@H](C(=O)N[C@@H](CCCCN)C(=O)N[C@H](C(=O)N[C@@H](CCCCN)C(=O)N[C@H](C(=O)N[C@@H](CCCCN)C(=O)N[C@H](C(=O)N[C@@H](CCCCN)C(=O)N[C@H](C(=O)N[C@@H](CCCCN)C(=O)N[C@H](C(=O)N[C@@H](CCCCN)C(=O)N[C@H](C(=O)O)[C@@H](C)O)C(C)C)[C@@H](C)O)C(C)C)[C@@H](C)O)C(C)C)[C@@H](C)O)C(C)C	–	binding, SPR Langmuir fit	rVλ6Wil fibrils	300 nM, pH 7.4	dissociation rate constant	0.0034 s⁻¹
CC[C@H](C)[C@H](NC(=O)CNC(=O)[C@H](CC(=O)O)NC(=O)[C@H](CC(C)C)NC(=O)[C@@H](NC(=O)[C@H](CC(N)=O)NC(=O)[C@H](CCC(N)=O)NC(=O)CNC(=O)[C@H](CC(C)C)NC(=O)[C@H](CCCCN)NC(=O)[C@H](CCC(=O)O)NC(=O)[C@@H](NC(=O)[C@H](CCCCN)NC(=O)[C@H](CCC(=O)O)NC(=O)[C@H](Cc1ccccc1)NC(=O)[C@H](CC(C)C)NC(=O)[C@H](CCCCN)NC(=O)[C@H](Cc1c[nH]c2ccccc12)NC(=O)[C@@H](N)CCC(=O)O)[C@@H](C)CC)[C@@H](C)CC)C(=O)N[C@H](C(=O)N[C@@H](CCCCN)C(=O)N[C@@H](CC(C)C)C(=O)NCC(=O)N1CCC[C@H]1C(=O)N[C@@H](CC(C)C)C(=O)N[C@@H](CC(C)C)C(=O)N[C@@H](C)C(=O)N[C@@H](CC(C)C)C(=O)N[C@@H](CC(C)C)C(=O)NCC(=O)N[C@@H](CCC(N)=O)C(=O)N[C@@H](CC(C)C)C(=O)N[C@H](C(=O)N[C@@H](CCC(N)=O)C(=O)N[C@H](C(=O)N[C@@H](C)C(=O)N[C@@H](CC(C)C)C(N)=O)[C@@H](C)CC)[C@@H](C)O)[C@@H](C)CC	–	membrane binding, stopped-flow FRET	POPC vesicles	pH 7.5, room temperature	Kd	400000 nM
CCCCCc1cc(O)c2c(c1)OC(C)(C)C1CCC(CO)=CC21 (centres unmarked)	CYP2B6	enzyme activity, inhibitor	microsomes from HEK293 cells	pH 7.4, unbound, fu,inc corrected, added: bupropion	Ki	86 ± 66 nM

Excerpt of the above:
Structure (SMILES)	tested on	assay	system	conditions	measurement	value
N=C(N)NCCC[C@@H]1NC(=O)[C@H](CCCCNC(=O)CCOCCOCCOCCOCCNC(=O)CC[C@H](NC(=O)CCOCCOCCOCCOCCNC(=O)CC[C@H](NC(=O)CN2CCN(CC(=O)O)CCN(CC(=O)O)CCN(CC(=O)O)CC2)C(=O)NCCOCCOCCOCCOCCC(=O)N[C@@H](CCC(=O)NCCOCCOCCOCCOCCC(=O)NCCCC[C@@H]2NC(=O)[C@@H](Cc3ccccc3)NC(=O)[C@H](CC(=O)O)NC(=O)CNC(=O)[C@H](CCCNC(=N)N)NC2=O)C(=O)NCCOCCOCCOCCOCCC(=O)NCCCC[C@@H]2NC(=O)[C@@H](Cc3ccccc3)NC(=O)[C@H](CC(=O)O)NC(=O)CNC(=O)[C@H](CCCNC(=N)N)NC2=O)C(=O)NCCOCCOCCOCCOCCC(=O)NCCCC[C@@H]2NC(=O)[C@@H](Cc3ccccc3)NC(=O)[C@H](CC(=O)O)NC(=O)CNC(=O)[C@H](CCCNC(=N)N)NC2=O)NC(=O)[C@@H](Cc2ccccc2)NC(=O)[C@H](CC(=O)O)NC(=O)CNC1=O [indium-111 labelled]	–	–	female athymic nude mice, eyes	intravenous, 3 µCi, 4 h, U-87 MG glioma xenograft	tissue uptake	1.03 ± 0.14 %ID/g
